Experimental data gathered from unrelated publications.
A part holds a random share of what one study measured. Values joined by “and” are separate records of one study, mostly repeats; a detail may differ.
Chain of UniProt O75385 (whole entry, looked up): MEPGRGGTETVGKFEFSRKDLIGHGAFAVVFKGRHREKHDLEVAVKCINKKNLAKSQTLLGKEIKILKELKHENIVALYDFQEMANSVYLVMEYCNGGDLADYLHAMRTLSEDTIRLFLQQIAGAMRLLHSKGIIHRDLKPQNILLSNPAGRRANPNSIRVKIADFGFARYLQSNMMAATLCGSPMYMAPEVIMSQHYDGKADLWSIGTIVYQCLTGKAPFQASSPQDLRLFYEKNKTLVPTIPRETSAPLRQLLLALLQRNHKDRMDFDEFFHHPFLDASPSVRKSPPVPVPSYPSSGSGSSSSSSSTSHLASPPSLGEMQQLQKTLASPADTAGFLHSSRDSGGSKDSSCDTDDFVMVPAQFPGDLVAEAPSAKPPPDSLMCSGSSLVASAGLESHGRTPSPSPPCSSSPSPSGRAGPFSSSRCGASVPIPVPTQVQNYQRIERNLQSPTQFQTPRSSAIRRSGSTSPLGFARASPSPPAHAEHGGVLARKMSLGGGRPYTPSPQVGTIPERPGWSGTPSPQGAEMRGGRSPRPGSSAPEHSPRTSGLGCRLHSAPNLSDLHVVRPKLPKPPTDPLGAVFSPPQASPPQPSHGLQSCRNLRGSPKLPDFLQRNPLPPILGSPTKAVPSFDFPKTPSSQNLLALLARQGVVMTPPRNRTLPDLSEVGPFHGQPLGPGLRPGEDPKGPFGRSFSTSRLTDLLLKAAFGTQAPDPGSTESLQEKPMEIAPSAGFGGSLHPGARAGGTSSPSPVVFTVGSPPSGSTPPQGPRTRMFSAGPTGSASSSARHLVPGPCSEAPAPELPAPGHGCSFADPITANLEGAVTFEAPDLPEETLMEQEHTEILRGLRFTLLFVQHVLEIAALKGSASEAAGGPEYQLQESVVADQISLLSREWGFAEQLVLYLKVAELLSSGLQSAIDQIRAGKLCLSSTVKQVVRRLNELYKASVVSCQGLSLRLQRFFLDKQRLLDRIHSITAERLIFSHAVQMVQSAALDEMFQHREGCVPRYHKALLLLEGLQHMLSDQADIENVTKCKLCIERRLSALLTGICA
Chain of UniProt Q9UKE5 (whole entry, looked up): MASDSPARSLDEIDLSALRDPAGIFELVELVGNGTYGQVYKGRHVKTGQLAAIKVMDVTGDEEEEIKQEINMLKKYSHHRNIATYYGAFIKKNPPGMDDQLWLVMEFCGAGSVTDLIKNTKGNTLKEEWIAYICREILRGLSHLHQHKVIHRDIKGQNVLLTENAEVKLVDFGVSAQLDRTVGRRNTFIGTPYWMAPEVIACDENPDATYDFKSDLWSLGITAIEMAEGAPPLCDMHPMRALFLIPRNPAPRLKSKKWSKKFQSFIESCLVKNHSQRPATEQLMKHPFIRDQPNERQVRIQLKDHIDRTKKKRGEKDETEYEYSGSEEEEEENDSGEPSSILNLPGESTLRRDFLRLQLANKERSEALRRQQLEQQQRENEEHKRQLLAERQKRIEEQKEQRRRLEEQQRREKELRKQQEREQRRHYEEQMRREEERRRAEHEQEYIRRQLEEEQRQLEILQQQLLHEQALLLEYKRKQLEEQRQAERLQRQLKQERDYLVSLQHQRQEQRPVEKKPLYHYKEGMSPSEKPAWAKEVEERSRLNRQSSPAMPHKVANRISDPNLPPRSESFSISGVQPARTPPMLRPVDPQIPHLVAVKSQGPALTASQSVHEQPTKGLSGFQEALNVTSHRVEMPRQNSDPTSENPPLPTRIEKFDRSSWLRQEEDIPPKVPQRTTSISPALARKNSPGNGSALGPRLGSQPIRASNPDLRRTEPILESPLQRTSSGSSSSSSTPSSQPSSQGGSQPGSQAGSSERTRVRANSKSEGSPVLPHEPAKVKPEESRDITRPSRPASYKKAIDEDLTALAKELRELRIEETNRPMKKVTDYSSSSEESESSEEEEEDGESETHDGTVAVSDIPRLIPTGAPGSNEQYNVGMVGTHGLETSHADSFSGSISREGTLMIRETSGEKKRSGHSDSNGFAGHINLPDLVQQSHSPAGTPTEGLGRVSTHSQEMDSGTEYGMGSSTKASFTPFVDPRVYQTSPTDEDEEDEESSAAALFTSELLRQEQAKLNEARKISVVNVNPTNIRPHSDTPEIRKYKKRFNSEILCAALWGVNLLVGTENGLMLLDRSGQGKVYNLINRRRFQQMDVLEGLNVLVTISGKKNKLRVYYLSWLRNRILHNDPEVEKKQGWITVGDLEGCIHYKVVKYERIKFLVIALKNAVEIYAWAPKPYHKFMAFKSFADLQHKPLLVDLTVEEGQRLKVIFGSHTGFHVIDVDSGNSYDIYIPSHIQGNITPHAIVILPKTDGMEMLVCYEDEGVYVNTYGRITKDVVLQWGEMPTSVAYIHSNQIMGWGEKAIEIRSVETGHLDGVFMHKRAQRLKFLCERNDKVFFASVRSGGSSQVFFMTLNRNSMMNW
Chain of UniProt O14733 (whole entry, looked up): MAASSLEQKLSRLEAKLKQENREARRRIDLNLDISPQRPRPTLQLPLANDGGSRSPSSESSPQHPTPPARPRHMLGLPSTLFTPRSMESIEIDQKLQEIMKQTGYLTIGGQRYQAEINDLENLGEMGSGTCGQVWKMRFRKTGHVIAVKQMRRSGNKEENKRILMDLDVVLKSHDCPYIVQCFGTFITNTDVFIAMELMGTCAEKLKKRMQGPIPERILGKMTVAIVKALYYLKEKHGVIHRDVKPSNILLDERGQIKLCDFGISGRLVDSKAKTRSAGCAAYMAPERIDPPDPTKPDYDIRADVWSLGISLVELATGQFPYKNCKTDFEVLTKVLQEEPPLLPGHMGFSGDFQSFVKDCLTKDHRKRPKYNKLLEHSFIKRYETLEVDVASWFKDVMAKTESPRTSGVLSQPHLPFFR
Chain of UniProt P78362 (whole entry, looked up): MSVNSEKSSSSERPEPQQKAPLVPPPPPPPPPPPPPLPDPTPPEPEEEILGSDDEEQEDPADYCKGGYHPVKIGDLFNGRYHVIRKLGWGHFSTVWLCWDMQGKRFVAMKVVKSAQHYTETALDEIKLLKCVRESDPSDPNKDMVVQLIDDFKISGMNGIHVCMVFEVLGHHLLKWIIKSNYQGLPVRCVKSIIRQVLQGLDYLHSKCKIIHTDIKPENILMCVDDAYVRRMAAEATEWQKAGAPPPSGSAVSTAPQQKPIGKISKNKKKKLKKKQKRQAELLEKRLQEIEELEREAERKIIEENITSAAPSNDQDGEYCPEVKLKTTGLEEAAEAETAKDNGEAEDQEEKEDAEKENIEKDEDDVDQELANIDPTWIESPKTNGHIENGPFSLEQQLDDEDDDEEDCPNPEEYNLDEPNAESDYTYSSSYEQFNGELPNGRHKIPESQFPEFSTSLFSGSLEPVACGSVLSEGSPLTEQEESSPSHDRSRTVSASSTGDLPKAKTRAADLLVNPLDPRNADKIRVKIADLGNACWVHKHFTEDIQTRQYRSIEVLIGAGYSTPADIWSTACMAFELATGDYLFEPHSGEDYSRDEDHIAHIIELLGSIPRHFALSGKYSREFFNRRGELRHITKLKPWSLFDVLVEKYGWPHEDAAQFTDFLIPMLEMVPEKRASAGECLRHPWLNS
Chain of UniProt P19525 (whole entry, looked up): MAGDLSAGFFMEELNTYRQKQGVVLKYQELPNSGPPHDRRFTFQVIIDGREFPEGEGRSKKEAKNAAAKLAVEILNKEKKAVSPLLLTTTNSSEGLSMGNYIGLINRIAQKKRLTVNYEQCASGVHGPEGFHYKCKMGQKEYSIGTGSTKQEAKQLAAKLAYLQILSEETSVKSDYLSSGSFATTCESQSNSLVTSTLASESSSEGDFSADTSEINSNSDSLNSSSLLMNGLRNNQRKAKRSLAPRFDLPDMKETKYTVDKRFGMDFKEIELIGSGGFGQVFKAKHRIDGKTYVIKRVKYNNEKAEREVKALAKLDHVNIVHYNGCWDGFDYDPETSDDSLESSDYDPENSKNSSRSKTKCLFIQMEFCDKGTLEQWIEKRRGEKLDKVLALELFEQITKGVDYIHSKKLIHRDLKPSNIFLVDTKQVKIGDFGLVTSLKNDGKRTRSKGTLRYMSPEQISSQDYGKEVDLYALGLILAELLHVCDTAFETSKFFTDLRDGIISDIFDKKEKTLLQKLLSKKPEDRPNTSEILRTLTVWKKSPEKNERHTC

Study 1 — cell line: MDA-MB-231; effect on: cell viability; method: CellCounting-Lite; concentration: 8.23 nM; temperature: 37 °C; reading: higher = more viable cells
With `CCn1cnc2c(NCc3nc4ccc(F)c(F)c4[nH]3)nc(N3CCn4ncnc4C3)nc21` the luminescence signal was 508000 a.u. and 523000 a.u. and 475000 a.u.
With `CCn1cnc2c(NCc3nc4cc(Cl)c(Cl)cc4[nH]3)nc(N3CCN(C(=O)[C@H](C)NC(C)=O)CC3)nc21` the luminescence signal was 464000 a.u. and 481000 a.u. and 471000 a.u.
`CC(=O)N1CCN(c2nc(NCc3nc4cc(Cl)c(Cl)cc4[nH]3)c3ncn(C)c3n2)CC1` has a luminescence signal of 321000 a.u. and 393000 a.u. and 508000 a.u.
For `CCn1cnc2c(NCc3nc4cc(Cl)c(Cl)cc4[nH]3)nc(N3CCN(c4ccccn4)CC3)nc21`, the luminescence signal was 673000 a.u. and 608000 a.u. and 600000 a.u.
For `CCn1cnc2c(NCc3nc4cc(Cl)c(Cl)cc4[nH]3)nc(N3CCN(C(=O)c4ccccn4)CC3)nc21`, the luminescence signal was 302000 a.u. and 313000 a.u. and 347000 a.u.
With `CCn1cnc2c(NCc3nc4cc(Cl)c(Cl)cc4[nH]3)nc(N3CCN(C(=O)c4ccccc4)CC3)nc21` the luminescence signal was 526000 a.u. and 443000 a.u. and 463000 a.u.
For `CCn1cnc2c(NCc3nc4cc(Cl)c(Cl)cc4[nH]3)nc(N3CCN(S(C)(=O)=O)CC3)nc21`, the luminescence signal was 449000 a.u. and 387000 a.u. and 440000 a.u.
`CCn1cnc2c(NCc3nc4cc(Cl)c(Cl)cc4[nH]3)nc(N3CCN(C(=O)CNC(C)=O)CC3)nc21` has a luminescence signal of 512000 a.u. and 473000 a.u. and 499000 a.u.
For `CCn1cnc2c(NCc3nc4cc(Cl)c(Cl)cc4[nH]3)nc(N3CCN(C(=O)c4ccncc4)CC3)nc21`, the luminescence signal was 427000 a.u. and 393000 a.u. and 325000 a.u.
The luminescence signal of `CCn1cnc2c(NCc3nc4cc(Cl)c(Cl)cc4[nH]3)nc(N3CCN(Cc4ccncc4)CC3)nc21` is reported as 376000 a.u. and 400000 a.u. and 446000 a.u.

Study 2 — route: intravenous
Structure (SMILES): Cc1ncsc1-c1ccc(C(CO)NC(=O)C2CC(O)CN2C(=O)C(C(C)C)n2cc(-c3ccc(COc4c(-c5c(C)c(F)cc6[nH]ncc56)c(C5CC5)cc5c(N6CC7CC6CN7)nc(OC6CCOCC6)nc45)cc3)nn2)cc1 (centres unmarked)
It gave 41.3 ng/g for concentration (mouse (PK-59 xenograft), pancreas; 10 mg/kg, 48 h).
male Balb/c nu/nu mouse (PK-59 xenograft), pancreas; 30 mg/kg, 6 h — concentration: 702 ng/g.
For male Balb/c nu/nu mouse (PK-59 xenograft), pancreas; 10 mg/kg, 24 h: concentration read 73.3 ng/g.
For mouse (PK-59 xenograft), plasma; 10 mg/kg, 72 h: concentration read 3.25 ng/mL and 3.91 ng/mL.
It gave 100 ng/g for concentration (mouse (PK-59 xenograft), pancreas; 30 mg/kg, 72 h).
For mouse, PK-59 xenograft, pancreas; 10 mg/kg, 72 h: concentration read 20.9 ng/g and 9.23 ng/g and 15.6 ng/g.
male Balb/c nu/nu mouse (PK-59 xenograft), tumor; 30 mg/kg, 2 h — concentration: 1260 ng/g.
The concentration was 329 ng/g and 223 ng/g (male Balb/c nu/nu mouse, PK-59 xenograft, tumor; 10 mg/kg, 6 h).

Study 3 — concentration: 1 µM
SMILES: CCC1(c2cccc(-c3cn(C)nc3C)c2)C2=C(Nc3n[nH]cc31)C(F)C(C)(C)CC2=O (single isomer, unassigned)
Dual specificity mitogen-activated protein kinase kinase 7 (MAP2K7, Homo sapiens, UniProt O14733); binding, competition with immobilised ligand — remaining binding: 88%.
It gave 100% for remaining binding (Receptor tyrosine-protein kinase erbB-3 (ERBB3, Homo sapiens, UniProt P21860); kinase binding, KINOMEscan; baseline: DMSO control).
It gave 100% for remaining binding (Receptor-type tyrosine-protein kinase FLT3 (FLT3, Homo sapiens, UniProt P36888); kinase binding, KINOMEscan; baseline: DMSO control).
Epidermal growth factor receptor (EGFR, Homo sapiens, UniProt P00533, L861Q); kinase binding, KINOMEscan; baseline: DMSO control — remaining binding: 100%.
It gave 100% for remaining binding (Mast/stem cell growth factor receptor Kit (KIT, Homo sapiens, UniProt P10721, V559D); binding, competition with immobilised ligand).
The remaining binding was 100% (Serine/threonine-protein kinase ULK1 (ULK1, Homo sapiens, UniProt O75385); binding, competition with immobilised ligand).
It gave 96% for remaining binding (Phosphatidylinositol 4-phosphate 5-kinase type-1 alpha (PIP5K1A, Homo sapiens, UniProt Q99755); binding, competition with immobilised ligand).
The remaining binding was 100% (Interferon-induced, double-stranded RNA-activated protein kinase (EIF2AK2, Homo sapiens, UniProt P19525); kinase binding, KINOMEscan; baseline: DMSO control).
For SNF-related serine/threonine-protein kinase (SNRK, Homo sapiens, UniProt Q9NRH2); kinase binding, KINOMEscan; baseline: DMSO control: remaining binding read 95%.
For SRSF protein kinase 2 (SRPK2, Homo sapiens, UniProt P78362); binding, competition with immobilised ligand: remaining binding read 88%.
For Activin receptor type-1-like (ACVRL1, Homo sapiens, UniProt P37023); kinase binding, KINOMEscan; baseline: DMSO control: remaining binding read 92%.
For Serine/threonine-protein kinase 17A (STK17A, Homo sapiens, UniProt Q9UEE5); binding, competition with immobilised ligand: remaining binding read 100%.
For Glycogen synthase kinase-3 alpha (GSK3A, Homo sapiens, UniProt P49840); binding, competition with immobilised ligand: remaining binding read 0%.
It gave 96% for remaining binding (TRAF2 and NCK-interacting protein kinase (TNIK, Homo sapiens, UniProt Q9UKE5); binding, competition with immobilised ligand).

Study 4 — effect on: enzyme activity; mode: inhibitor; method: Ub-TR-FRET; medium: HECT domain; concentration: 1.235 µM; reading: higher = more chain formation
Target: E3 ubiquitin-protein ligase NEDD4, HECT domain (Homo sapiens, UniProt P46934)
Construct (P46934 938-1319, limits assumed): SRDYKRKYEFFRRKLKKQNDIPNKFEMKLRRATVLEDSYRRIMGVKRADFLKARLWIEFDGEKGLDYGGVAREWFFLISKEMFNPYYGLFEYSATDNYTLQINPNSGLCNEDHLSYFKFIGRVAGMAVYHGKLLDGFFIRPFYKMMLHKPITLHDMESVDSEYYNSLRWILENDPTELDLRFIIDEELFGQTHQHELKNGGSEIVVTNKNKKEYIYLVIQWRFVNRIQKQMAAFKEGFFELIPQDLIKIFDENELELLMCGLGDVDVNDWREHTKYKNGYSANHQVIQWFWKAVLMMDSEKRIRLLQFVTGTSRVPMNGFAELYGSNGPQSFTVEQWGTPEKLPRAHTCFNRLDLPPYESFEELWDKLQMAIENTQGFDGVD
`CN(C)C(=O)/C=C/CNCCCN1c2ccccc2CCc2ccc(Cl)cc21.Cl` — result for “ubiquitin chain formation AUC”: 139000 a.u. and 140000 a.u. and 137000 a.u.
For `CCOC(=O)/C=C/CN(CC)CCCCN1c2ccccc2CCc2ccc(Cl)cc21.O=C(O)/C=C\C(=O)O`, “ubiquitin chain formation AUC” read 70900 a.u. and 58900 a.u. and 69500 a.u. and 59700 a.u. and 69900 a.u.
For `CC(C)ONC(=O)/C=C/CNCCCCN1c2ccccc2CCc2ccc(Cl)cc21.O=C(O)/C=C\C(=O)O`, “ubiquitin chain formation AUC” read 19200 a.u. and 18800 a.u. and 18600 a.u. and 24700 a.u. and 23400 a.u.
For `CCOC(=O)/C=C/CNCCCN1c2ccccc2CCc2ccc(Cl)cc21`, “ubiquitin chain formation AUC” read 27100 a.u. and 24600 a.u. and 25000 a.u.
`CCOC(=O)/C=C/CNCCCCN1c2ccccc2C(=O)N(C)c2ccc(Cl)cc21.O=C(O)/C=C\C(=O)O`: “ubiquitin chain formation AUC” 70400 a.u. and 69000 a.u. and 69500 a.u.
`CCOC(=O)/C=C/CNCCCCN1c2cc(Cl)ccc2C(=O)N(C)c2ccccc21.O=C(O)/C=C\C(=O)O`: “ubiquitin chain formation AUC” 61300 a.u. and 65500 a.u. and 60400 a.u.
For `CNCCCN1c2ccccc2CCc2ccc(Cl)cc21`, “ubiquitin chain formation AUC” read 142000 a.u. and 140000 a.u. and 144000 a.u.
Under “ubiquitin chain formation AUC”, `N#C/C=C/CNCCCCN1c2ccccc2CCc2ccc(Cl)cc21.O=C(O)/C=C\C(=O)O` is recorded as 20600 a.u. and 13300 a.u. and 13000 a.u. and 14100 a.u. and 23100 a.u. and 14000 a.u.
`CONC(=O)/C=C/CNCCCCN1c2ccccc2CCc2ccc(Cl)cc21.O=C(O)/C=C\C(=O)O`: “ubiquitin chain formation AUC” 24100 a.u. and 23000 a.u. and 27600 a.u. and 26000 a.u. and 27800 a.u. and 23300 a.u.
